Experimental data pooled from the literature.
Each line is one published result; not all experiments were run side by side. Several values in a cell are separate wells, animals, samples, runs or records. Numbers after ± are the reported error.
B1: cystatin A; sequence looked up; chain MIPGGLSEAKPATPEIQEIVDKVKPQLEEKTNETYGKLEAVQYKTQVVAGTNYYIKVRAGDNKYMHLKVFKSLPGQNEDLVLTGYQVDKNKDDELTGF

GWTLNSAGYLLGPHAVDNHRSFNDKHGFT-NH2 (C-amide)
colon length (peptide, mouse, DSS-induced colitis; ip, 1.5 µM): 6 cm and 6.2 cm

PENVAPR (CCT4)
log2 fold change (peptide binding, SILAC pull-down; concentration not given; reference: non-acetylated over acetylated NIT1 peptide): 1.37

(−)-antroquinonol A
IC50 (MDA-MB-231; cytotoxicity, MTS; 72 h): > 25 µM

aspterric acid
inhibition (hypocotyl length; Arabidopsis thaliana Col-0 seeds; 50 µg/mL, seed germination; reference: water control): 98.9%

nonaarginine
kon (PorA peptide pore; peptide binding, planar bilayer single-channel recording; 0.5 µM, pH 7.4, -40 mV, cis side, 150 mM KCl): 3e+07 ± 3e+06 M⁻¹ s⁻¹

B1 (cystatin A)
log2 fold change (peptide binding, SILAC pull-down; concentration not given; reference: non-acetylated over acetylated NIT1 peptide): 0.269

colistin
radial growth ratio (Aspergillus fumigatus; pkcA G579R, solid minimal medium; 10 µM, 4 days, 37 °C; reference: untreated): 0.974 and 1 and 0.975

pertussis toxin
phospho-PKA level (immunostaining, refers to: p-PKA; humanized UT (+/h+) mice, SAH model, meninges; dose not given): 97.1 MFI and 78.9 MFI and 122 MFI

argonaute 2
log2 fold change (peptide binding, SILAC pull-down; concentration not given; reference: non-acetylated over acetylated NIT1 peptide): -0.582

GWTLNSAGYLLGPRRIDHLLMIKEMPIARGREEAPGA / YAVDNHRSFNDKHGFT-NH2 (C-amide)
mRNA level (RT-qPCR, refers to: Ocln; mouse, DSS-induced colitis, colon; ip, 3 µM, 3% DSS, unit not given; reference: Gapdh): 3.8 and 1.49 and 2.08 and 1.22

hexaarginine
koff (PorA peptide pore; peptide binding, planar bilayer single-channel recording; 0.5 µM, pH 7.4, +25 mV, trans side, 150 mM KCl): 4350 ± 430 s⁻¹

insulin human
fold change (refers to: CAMK1D mRNA; EcoHIV-infected mouse, brain; i.p., dose not given; reference: PBS): 1.06

A few entries again:
pertussis toxin
phospho-PKA level (immunostaining, refers to: p-PKA; humanized UT (+/h+) mice, SAH model, meninges; dose not given): 97.1 MFI and 78.9 MFI and 122 MFI
